Assay results pooled from the literature.
Every numbered part comes from another study and shows a few of its results, in no order.

Set 1 — target: UBE2G1 UBC core domain (UniProt P62253); method: yeast two-hybrid; medium: yeast; notes: mostly zero background; relative to: not given; reading: higher = stronger interaction; measurement: lacZ reporter activity
B1: TRIM60 RING domain (UniProt Q495X7); chain ALVNLQEESSCPICLEYLKDPVTINCGHNFCRSCLSVSWKDLDDTFPCPVCRFCFPYKSFRR
B2: RLIM RING domain (UniProt Q9NVW2); chain SFGENDALKTCSVCITEYTEGNKLRKLPCSHEYHVHCIDRWLSENSTCPICRRAVLASGNRE
B3: TRIM37 RING domain (UniProt O94972); chain SVESIAEVFRCFICMEKLRDARLCPHCSKLCCFSCIRRWLTEQRAQCPHCRAPLQLRELVN
B4: MYCBP2 RING domain (UniProt O75592); chain TSLKQDADDMCMICFTEALSAAPAIQLDCSHIFHLQCCRRVLENRWLGPRITFGFISCPICKNKINHIVLKD
B5: RNF166 RING domain (UniProt Q96A37); chain GDSGLEAQYTCPICLEVYHRPVAIGSCGHTFCGECLQPCLQVPSPLCPLCRLPFDPKKVDK
B6: TRIM54 RING domain (UniProt Q9BYV2); chain SMDNLEKQLICPICLEMFSKPVVILPCQHNLCRKCANDVFQASNPLWQSRGSTTVSSGGRFRCPSCRHEVVLDRHGV
B7: MKRN2 RING domain (UniProt Q9H000); chain FAFQASQDKVCSICMEVILEKASASERRFGILSNCNHTYCLSCIRQWRCAKQFENPIIKSCPECRVISEFVIPSV
Residues (chain): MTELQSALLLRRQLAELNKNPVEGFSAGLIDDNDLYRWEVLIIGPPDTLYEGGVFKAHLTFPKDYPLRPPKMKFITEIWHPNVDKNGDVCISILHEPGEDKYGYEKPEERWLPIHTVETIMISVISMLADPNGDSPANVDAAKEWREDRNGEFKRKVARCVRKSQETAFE
AEADPLGRFTCPVCLEVYEKPVQVPCGHVFCSACLQECLKPKKPVCGVCRSALAPGVRAV (RNF114 RING domain (UniProt Q9Y508)): 0
MNDVLENELQCIICSEYFIEAVTLNCAHSFCSYCINEWMKRKIECPICRKDIKSKTYSL (RNF8 RING domain (UniProt O76064)): 0
LDAASGHPLVCPLCHGQYERPCLLDCFHDFCTGCLRGRATDGRLSCPLCQHQTLVKGPSG (Rnf207 RING domain (UniProt Q3V3A7)): 0
RYRQMEERITCPICIDSHIRLVFQCGHGACAPCGSALSACPICRQPIRDRIQIF (MIB2 RING domain (UniProt Q96AX9)): 0
B1 (TRIM60 RING domain): 0
B2 (RLIM RING domain): 0
B3 (TRIM37 RING domain): 0
B4 (MYCBP2 RING domain): 0
LGTKLEAKYLCSACRNVLRRPFQAQCGHRYCSFCLASILSSGPQNCAACVHEGIYEEGIS (TRAF2 RING domain (UniProt Q12933)): 0
B5 (RNF166 RING domain): 0
PEELAVNNDDCAICWDSMQAARKLPCGHLFHNSCLRSWLEQDTSCPTCRMSLNIADNNR (AMFR RING domain (UniProt Q9UKV5)): 0
B6 (TRIM54 RING domain): 0
B7 (MKRN2 RING domain): 0
FVKTVEDKYKCEKCHLVLCSPKQTECGHRFCESCMAALLSSSSPKCTACQESIVKDKVF (TRAF3 RING domain (UniProt Q13114)): 0

Set 2 — method: universal PBM; molecule type: double-stranded DNA, one strand shown; medium: in vitro; tested at: 600 nM; reading: higher = stronger binding; measurement: E-score
Target: Sal-like protein 4, full length isoform A (SALL4, Homo sapiens, UniProt Q9UJQ4, residues 1-1053)
Sequence of UniProt Q9UJQ4 (whole entry, looked up): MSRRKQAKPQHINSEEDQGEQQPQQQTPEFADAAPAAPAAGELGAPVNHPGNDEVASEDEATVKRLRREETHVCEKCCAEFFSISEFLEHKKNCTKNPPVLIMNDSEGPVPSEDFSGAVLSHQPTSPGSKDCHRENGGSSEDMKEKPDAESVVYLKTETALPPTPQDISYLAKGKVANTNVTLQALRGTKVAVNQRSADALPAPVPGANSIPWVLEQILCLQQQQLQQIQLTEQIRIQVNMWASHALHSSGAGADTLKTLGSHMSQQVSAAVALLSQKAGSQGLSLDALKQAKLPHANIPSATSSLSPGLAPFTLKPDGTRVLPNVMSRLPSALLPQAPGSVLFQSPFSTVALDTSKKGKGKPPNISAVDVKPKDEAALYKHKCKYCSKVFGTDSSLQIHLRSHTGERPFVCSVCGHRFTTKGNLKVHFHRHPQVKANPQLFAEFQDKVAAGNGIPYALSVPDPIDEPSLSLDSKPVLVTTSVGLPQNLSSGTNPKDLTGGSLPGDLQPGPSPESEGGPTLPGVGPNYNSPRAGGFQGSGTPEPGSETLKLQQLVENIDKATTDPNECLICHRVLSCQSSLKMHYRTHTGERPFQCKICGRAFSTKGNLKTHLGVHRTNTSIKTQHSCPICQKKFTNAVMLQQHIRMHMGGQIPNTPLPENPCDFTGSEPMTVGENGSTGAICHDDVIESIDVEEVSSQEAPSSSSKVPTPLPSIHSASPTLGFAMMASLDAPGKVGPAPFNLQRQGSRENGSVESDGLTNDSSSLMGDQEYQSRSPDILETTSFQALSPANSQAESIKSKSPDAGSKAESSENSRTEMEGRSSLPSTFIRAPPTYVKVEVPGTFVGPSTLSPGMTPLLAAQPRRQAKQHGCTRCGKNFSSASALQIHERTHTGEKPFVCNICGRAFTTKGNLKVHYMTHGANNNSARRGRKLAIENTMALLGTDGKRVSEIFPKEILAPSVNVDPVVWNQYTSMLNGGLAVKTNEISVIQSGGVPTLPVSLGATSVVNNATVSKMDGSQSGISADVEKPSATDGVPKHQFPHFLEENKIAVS
Notes: 8-mer, flanks averaged, mean of replicates
GAGACCTA: -0.147
AAACTCAG: 0.109
CATCGAGC: -0.129
TGTCCTAA: 0.094
AATGTCTA: 0.247
AAAAATGC: 0.173
AAAGATTC: 0.158
AAGACAGC: -0.141
GCCTCGAA: -0.156
ATTCAGAG: 0.008
ACTGTATC: 0.0603
CGCGCGGC: -0.312
CGATGAAA: 0.21
ATAGGTGA: 0.105
ACTGTGTC: -0.00125
CCTGAAAC: 0.0166
CGAGTTCC: -0.0578
CTACGACC: -0.155
CCCTACGA: -0.0558
GACCTTCA: -0.111
ACGTCCTC: -0.0875
GATGCTGA: -0.15
AGTCATCC: -0.122
AAAATTTT: 0.342
ACACGTGC: -0.135

Set 3 — method: RNA Bind-n-Seq; molecule type: RNA; medium: in vitro; tested at: 365 nM; relative to: no-protein control; reading: higher = stronger binding; measurement: RBNS enrichment (R)
Target: RNA binding protein fox-1 homolog 2, RRM domain, GST-SBP tag (RBFOX2, Homo sapiens, UniProt O43251-10, residues 100-194)
Notes: natural RNA segment, single round, ends assumed
All sequences stand within: GGGAGUUCUACAGUCCGACGAUC … UGGAAUUCUCGGGUGCCAA
Target sequence (chain): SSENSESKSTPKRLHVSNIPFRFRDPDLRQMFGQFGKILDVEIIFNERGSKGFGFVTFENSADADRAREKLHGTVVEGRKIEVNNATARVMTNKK
GUUUUAACGAUUUGUUUCUCCUGCUCCUCUUCUGUCAGACCUGACCCCACACAAACCUGUCCCCUCGGUUGUGUUGAAGUCCCCUGGACAGUGGGCAGGGGUGGCAGAGG: 0.283
UAGAAAUUUAAUAUAAUCAGCCUUAACUAUGUUGUCUAACUCCUAAAGUACUUUGUUAUAAAGUCUUGAUUUCAUCAUAAUUUGUUACAUUUGUCUAUAUUUCCUACGGU: 0.776
GGGCCUCGAGCUGUCAGUCAUCAUGGUGCUAUCCUCUGAACCCCUCAGCUGCCACUGCAACAGUGGGCUUAAGGGUGUCUGAGCAGGAGAGGAAAGAUAAGCUCUUCGUG: 0.272
UGGAUUUUGAAGUUAUUUUAAUUAUAGAAUUAUUUUUUUAGAAGAAAGAUGGAUGUGAUAGUCUAUAUUUGUGUGUUUCUAAAGUUGUGUCUUGUGGGGGAAUUGGAUUC: 7.6
CUGCCAUUGCACUUUGUAAAUCUGUAGAAUCGCUCGUAUAAAAUUUCUAUUAAAGAUUCUAGUGAAACAUAAAGUUGUAUUGUGUUCACCUUAAAACUUAUUGGAUUAUG: 0.709
AAUUUGAAAGCUUUCAUGCUGUUAGCCCCUGAUGAAAUUCUCAGCAUUAACUGGCCAGCUCCUCUGAUUUCUGCAGCAUCGCAACAGGUUCGAAGAUGGGUUGUGGCUGG: 1.53
UUUUAAAUGGCAUGAAAUUAGGAAACUUUUGUACAUUUUAUAUACAUUUUGAGAUGAACAGAACAAUGGGCUGAGUUAUAAAAAGCGUGUAUUGAAUUUAAGAAGACAGA: 2.81
AAUCUGAUUCAGAAUGCUUUUCUCAGCUGACAUACAGAGCACUAAAUAUUUUAAGGCAAGUCCAUAGGUCUGAAUCUCUUAAGAAUUCUCGGCCUCUGUGGGAUUUAGGG: 0.573
GUCAAAAACCUUUAUAUUCUGUUCUUAAUAAUGUUUGUGCCAACCUAUAUCCCAUGUAAGGGAUCUGGGGAGGAGGCAUGUGUCUACAACCAUACCUUUUUGCACUAUGG: 1.53
AACUGUUGCUAUUGUGAGAUGGAUUUUAACUGACCUAUUAAGGGUUUCUUUCGAAUGGCACUACUUUAGGGACAUUCUAGUAUUUGCUUCUAUUGUUUGGGCCUUGUGGA: 0.537
UCCUCCUUCCCUUCAUAAGGACUUUUUUUGUCUUUCUUUAACGCCCAGGCUUCGUCUUAUUUCUACUGUUUUUGUCGCAACUUCCAUUGAUUUAUGUCCCUUCCCUCCCC: 1.88
CUUGCCUUUUAGUCCUAUACAAAUGUACCUUUCUAUAAAGGGGUGCAAGCAGCACUUCAGAAGAAACCAGCAUCAAAGCAGCCUUCCCUGACCCCACCUAUCGUCUUCUG: 0.371

Set 4 — method: protein binding microarray; molecule type: double-stranded DNA, one strand shown; medium: in vitro; tested at: not given; relative to: not given; reading: higher = stronger binding; measurement: E-score
Target: Histone acetyltransferase KAT6A, winged helix 1, GST fusion (KAT6A, Homo sapiens, UniProt Q92794, residues 1-85)
Notes: 8-mer, flanks averaged, mean of 2 arrays, mostly near background
Construct (chain): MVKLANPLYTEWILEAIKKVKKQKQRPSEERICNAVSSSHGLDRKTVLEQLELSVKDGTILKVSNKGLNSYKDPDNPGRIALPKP
AATCAGTC: -0.121
ACGTGCTG: -0.141
TGAAGGCA: -0.236
GACTAAGC: 0.167
ACCCAGCG: 0.0923
CGTCCTGC: -0.0222
AAGTTGGT: -0.294
GACAGCTA: -0.193
CCTAAGAG: -0.219
AGTCATGA: -0.111
CTAACTAA: -0.00874
CGTTCCAC: 0.181
ATGATTGG: -0.157
AACGCTGT: -0.0505
AACTGCGC: 0.234
ATCCTAAT: -0.098
CGTGTGTA: 0.0409
AACAAGTT: -0.196
GAGCGGCA: 0.405

Set 5 — method: competition protein-binding microarray; molecule type: double-stranded DNA, one strand shown; medium: in vitro; tested at: 2 µM; together with: Pho4 competitor, 0.05 µM; reading: higher = stronger binding; measurement: fluorescence intensity; all sequences stand within: … GTCTTGATTCGCTTGACGCTGCTG
Target: Centromere-binding protein 1, full length, His-tagged (CBF1, Saccharomyces cerevisiae, UniProt P17106, residues 1-351)
Sequence of UniProt P17106 (whole entry, looked up): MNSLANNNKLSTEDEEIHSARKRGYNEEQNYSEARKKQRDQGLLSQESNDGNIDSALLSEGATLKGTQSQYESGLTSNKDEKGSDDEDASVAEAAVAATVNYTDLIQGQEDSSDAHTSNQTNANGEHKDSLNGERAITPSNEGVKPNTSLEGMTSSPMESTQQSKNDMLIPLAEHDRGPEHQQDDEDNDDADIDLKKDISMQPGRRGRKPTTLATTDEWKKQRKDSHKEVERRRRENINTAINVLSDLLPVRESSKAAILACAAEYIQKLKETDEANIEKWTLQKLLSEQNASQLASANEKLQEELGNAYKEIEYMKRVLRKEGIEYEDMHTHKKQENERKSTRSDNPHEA
Notes: whole 60-bp probe, lowest competitor level
GCTGGCCTCGCCCGTCACAAAAGAAATGAGCTCACT: 66.9 a.u.
CGTCCTAGTGATTTTCACGTGCTCTCCATGAGGAAG: 1410 a.u.
AATCTCTGGCTTCACCACGTTTTCCAGCTTCAAAGA: 92 a.u.
TGCGCAACAACTTGCTGGGTGGGTGTATGTCTAGAA: 63.1 a.u.
AGAGGTATTACCCATCACGTGATGGTTATTTCTTTT: 18300 a.u.
GTCTTGTCTCATTGTGTTGTGGGTGTCCCCACTTCA: 107 a.u.
TGCGCAACAACTTGTGCCGTGGGTGTATGTCTAGAA: 73.1 a.u.
TGCCCGCCATCGAGTCACATGTTCCTACAGATGAAG: 1460 a.u.
CTAACGAAGGTTTTTCACGTGCCCTACAAGCCAAGT: 1190 a.u.
AAAGCGGTAATTTTTCACGTGATATCAAATATCTAT: 6120 a.u.
CTTCTGTAAATTTGGTCTGTGGGTGGACGCGCCCCG: 87.6 a.u.
CGTCCTAGTGATTGTCACATCACTTCCATGAGGAAG: 88.6 a.u.
TTGAGTGTCGTCTGGCACGTGGAGGTCCCTCCTCAG: 557 a.u.
ATTGAAGGTGTAGAGGCCGTGACGAATTGATGTGGT: 84.8 a.u.
AGGGATACCGCTACCCACGTACCCCAAGACCAGCCC: 57.1 a.u.
ATTTCGATGTACATCCTCGTGATGGTAAATATGGCC: 456 a.u.
CTAACGAAGGTTTGTGCTGTGGGTGACAAGCCAAGT: 71.3 a.u.

Excerpt of the above (set 4):
ACGTGCTG: -0.141
TGAAGGCA: -0.236
GACTAAGC: 0.167
ACCCAGCG: 0.0923
CGTCCTGC: -0.0222
AAGTTGGT: -0.294
GACAGCTA: -0.193
CCTAAGAG: -0.219
AGTCATGA: -0.111
CTAACTAA: -0.00874
